{"data": "Published values from different studies", "note": "Numbered parts are unrelated; each lists some results of a single study. Positions count from the first letter of the parent shown."}
{"data": "Study 1", "target": "Histone acetyltransferase KAT6A, both winged helices, GST fusion (KAT6A, Homo sapiens, UniProt Q92794, residues 1-181)", "method": "protein binding microarray", "form": "double-stranded DNA, one strand shown", "matrix": "in vitro", "tested at": "not given", "setting": "8-mer, flanks averaged, mean of 2 arrays, mostly near background", "reference": "not given", "direction": "higher = stronger binding", "Target sequence (chain)": "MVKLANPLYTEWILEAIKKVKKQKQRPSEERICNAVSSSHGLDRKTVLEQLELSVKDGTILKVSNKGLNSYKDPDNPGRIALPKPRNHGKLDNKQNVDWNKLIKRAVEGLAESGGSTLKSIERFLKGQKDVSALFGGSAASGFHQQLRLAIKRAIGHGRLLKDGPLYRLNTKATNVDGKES"}
{"Oligonucleotide": "AAGTCCAG", "E-score": -0.0894}
{"Oligonucleotide": "CGGAGATA", "E-score": 0.169}
{"Oligonucleotide": "CGCGATTC", "E-score": 0.278}
{"Oligonucleotide": "CTTCGTAC", "E-score": -0.00819}
{"Oligonucleotide": "AGGGACAT", "E-score": -0.0122}
{"Oligonucleotide": "CAACTTAG", "E-score": -0.0346}
{"Oligonucleotide": "AATGCGGG", "E-score": 0.137}
{"Oligonucleotide": "CTCGAGTC", "E-score": -0.0572}
{"Oligonucleotide": "AAACTGGT", "E-score": -0.0376}
{"Oligonucleotide": "AAAGTATC", "E-score": 0.0909}
{"Oligonucleotide": "GCCACTCC", "E-score": 0.0156}
{"Oligonucleotide": "CCTTCTGC", "E-score": -0.0446}
{"Oligonucleotide": "CATATAGA", "E-score": 0.0219}
{"Oligonucleotide": "CCTCCGTC", "E-score": 0.0238}
{"Oligonucleotide": "CCAATGAC", "E-score": -0.199}
{"Oligonucleotide": "CTGTTAGA", "E-score": -0.0569}
{"Oligonucleotide": "TCAGAACA", "E-score": -0.0691}
{"Oligonucleotide": "ATGCTTTG", "E-score": -0.0611}
{"Oligonucleotide": "ATGCAATG", "E-score": -0.176}
{"Oligonucleotide": "AGACGCAC", "E-score": 0.122}
{"Oligonucleotide": "ATATTAAC", "E-score": 0.0773}
{"data": "Study 2", "target": "CCNB1, cyclin fold, Cln2 fusion (human)", "method": "yeast growth competition, sequencing", "matrix": "yeast", "setting": "strong parent motif", "reference": "not given", "direction": "higher = stronger binding", "parent": "RBL2 docking peptide (human); STTRRRLFVENDS"}
{"Variant": "STTRRRLEVENDS [F8E]", "normalised enrichment score": 1.08}
{"Variant": "SATRRRLFVENDS [T2A]", "normalised enrichment score": 0.889}
{"Variant": "STQRRRLFVENDS [T3Q]", "normalised enrichment score": 0.663}
{"Variant": "SPTRRRLFVENDS [T2P]", "normalised enrichment score": 0.948}
{"Variant": "NTTRRRLFVENDS [S1N]", "normalised enrichment score": 0.36}
{"Variant": "STTRRRLFVMNDS [E10M]", "normalised enrichment score": 1.24}
{"Variant": "STTWRRLFVENDS [R4W]", "normalised enrichment score": -0.511}
{"Variant": "STTRRRLFVEADS [N11A]", "normalised enrichment score": 0.619}
{"Variant": "STTRRRLFVRNDS [E10R]", "normalised enrichment score": 0.367}
{"Variant": "STRRRRLFVENDS [T3R]", "normalised enrichment score": 0.944}
{"Variant": "STTRRRLFVENDT [S13T]", "normalised enrichment score": 0.498}
{"Variant": "PTTRRRLFVENDS [S1P]", "normalised enrichment score": 1.22}
{"Variant": "SVTRRRLFVENDS [T2V]", "normalised enrichment score": 0.61}
{"Variant": "STTRRRLFVENDN [S13N]", "normalised enrichment score": 0.321}
{"Variant": "STTRRRLFVINDS [E10I]", "normalised enrichment score": 0.738}
{"Variant": "STTRRRLFVTNDS [E10T]", "normalised enrichment score": 0.174}
{"data": "Study 3", "target": "ABI1, truncated, D143A, DHFR fusion (Arabidopsis thaliana)", "method": "DHFR PCA, deep sequencing", "matrix": "yeast", "setting": "methotrexate growth selection, single substitutions", "added": "(+)-ABA 0.11 µM", "reference": "wild-type fitted maximum", "direction": "higher = stronger binding", "parent": "PYL1, truncated, DHFR fusion (Arabidopsis thaliana); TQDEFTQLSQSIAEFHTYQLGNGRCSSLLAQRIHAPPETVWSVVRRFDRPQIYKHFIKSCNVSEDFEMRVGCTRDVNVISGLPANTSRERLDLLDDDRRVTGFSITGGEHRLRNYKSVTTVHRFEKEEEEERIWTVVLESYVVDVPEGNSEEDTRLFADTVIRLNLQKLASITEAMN; partner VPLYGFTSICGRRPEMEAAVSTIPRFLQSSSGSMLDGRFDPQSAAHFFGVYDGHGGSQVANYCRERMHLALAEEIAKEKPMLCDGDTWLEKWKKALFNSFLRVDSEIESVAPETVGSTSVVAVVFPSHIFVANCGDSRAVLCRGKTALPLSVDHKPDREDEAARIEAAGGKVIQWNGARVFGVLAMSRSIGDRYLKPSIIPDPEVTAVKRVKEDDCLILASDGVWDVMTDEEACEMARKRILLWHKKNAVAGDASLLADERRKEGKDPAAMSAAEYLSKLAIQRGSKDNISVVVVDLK"}
{"Variant": "N165E", "relative binding score [%]": 3.1}
{"Variant": "Y141V", "relative binding score [%]": -2.76}
{"Variant": "N61Q", "relative binding score [%]": 46}
{"Variant": "V43D", "relative binding score [%]": -3.52}
{"Variant": "S27M", "relative binding score [%]": -1.19}
{"Variant": "E125K", "relative binding score [%]": 36.7}
{"Variant": "E174T", "relative binding score [%]": 12.6}
{"Variant": "L29W", "relative binding score [%]": -1.22}
{"data": "Single results of other studies"}
{"Molecule": "PhoQ, residues 284 288 289 292 302 303 GTAMQF", "target": "PhoP, residues 12 14 15 18 19 AWHSL (Escherichia coli, UniProt P23836)", "test": "Sort-seq, refers to: YFP reporter", "test system": "E. coli", "setting": "PhoQ-PhoP variant library, added: 10 µM Mg2+", "scale": "reference: high Mg2+ state, higher = stronger signaling", "measurement": "fold induction", "result": 2.1}
{"note": "For quick reference, copied from above (study 1):"}
{"Oligonucleotide": "CTCGAGTC", "E-score": -0.0572}
{"Oligonucleotide": "AATGCGGG", "E-score": 0.137}
{"Oligonucleotide": "AAAGTATC", "E-score": 0.0909}
{"Oligonucleotide": "CAACTTAG", "E-score": -0.0346}
{"Oligonucleotide": "CTGTTAGA", "E-score": -0.0569}
{"Oligonucleotide": "AGACGCAC", "E-score": 0.122}
{"Oligonucleotide": "CTTCGTAC", "E-score": -0.00819}
